Measurements of several laboratories.
Protocols differ between the studies behind these lines. Numbers after ± are the reported error.

SMILES | test system | setting | scale | quantity | result
N=C(N)NCCC[C@@H]1NC(=O)[C@H](CCCCNC(=O)CC[C@H](NC(=O)CCOCCOCCOCCOCCNC(=O)CN2CCN(CC(=O)O)CCN(CC(=O)O)CCN(CC(=O)O)CC2)C(=O)NCCCC[C@@H]2NC(=O)[C@@H](Cc3ccccc3)NC(=O)[C@H](CC(=O)O)NC(=O)CNC(=O)[C@H](CCCNC(=N)N)NC2=O)NC(=O)[C@@H](Cc2ccccc2)NC(=O)[C@H](CC(=O)O)NC(=O)CNC1=O [indium-111 labelled] | female athymic nude mice, liver | intravenous, 3 µCi, 1 h, U-87 MG glioma xenograft |  | tissue uptake | 2.57 ± 0.42 %ID/g
CSCC[C@H](NC(=O)[C@H](CC(C)C)NC(=O)[C@H](Cc1c[nH]cn1)NC(=O)CNC(=O)[C@@H](NC(=O)[C@H](C)NC(=O)[C@H](Cc1c[nH]c2ccccc12)NC(=O)[C@H](CCC(N)=O)NC(=O)CCCCCCCNC(=O)CCC(=O)Nc1ccc(CNC23CNCCNCC(N)(CNCCNC2)CNCCNC3)cc1)C(C)C)C(N)=O [copper-64 labelled] | female SCID mice, PC-3 xenograft, lung | intravenous, 0.6 MBq, 1 h |  | tissue uptake | 1.25 ± 0.106 %ID/g
N=C(N)NCCC[C@@H]1NC(=O)[C@H](CCCCNC(=O)CNC(=O)CNC(=O)CNC(=O)CC[C@H](NC(=O)CNC(=O)CNC(=O)CNC(=O)[C@H](CCCCNC(=O)c2ccc(NN)nc2)NC(=O)c2ccc(NN)nc2)C(=O)NCC(=O)NCC(=O)NCC(=O)NCCCC[C@@H]2NC(=O)[C@@H](Cc3ccccc3)NC(=O)[C@H](CC(=O)O)NC(=O)CNC(=O)[C@H](CCCNC(=N)N)NC2=O)NC(=O)[C@@H](Cc2ccccc2)NC(=O)[C@H](CC(=O)O)NC(=O)CNC1=O [technetium-99m labelled] | female athymic nude mice | intravenous, 1 h, U-87 MG glioma xenograft | reference: tumour over liver | tissue ratio | 2.92 ± 0.64
CC(C)C[C@H](NC(=O)[C@H](Cc1ccc(O)cc1)NC(=O)[C@@H](CCCNC(=N)N)NC(=O)[C@@H](CO)NC(=O)[C@H](Cc1ccccc1)NC(=O)[C@H](CC1CCCCC1)NC(=O)[C@H](CC(=O)O)NC(=O)CCC(C(=O)O)N1CCCN2CCN(CCCN(CC(=O)O)CC2)CC1)C(=O)N[C@@H](Cc1c[nH]c2ccccc12)C(=O)N[C@@H](CO)C(=O)O (stereo partly shown) [copper-64 labelled] | female NMRI nude mice, stomach | 22 h p.i. |  | tissue uptake | 0.7 ± 0.1 %ID/g
N=C(N)NCCC[C@@H]1NC(=O)[C@H](CCCCNC(=O)CCOCCOCCOCCOCCNC(=O)CC[C@H](NC(=O)CCOCCOCCOCCOCCNC(=O)[C@H](CCCCNC(=O)c2ccc(NN)nc2)NC(=O)c2ccc(NN)nc2)C(=O)NCCOCCOCCOCCOCCC(=O)NCCCC[C@@H]2NC(=O)[C@@H](Cc3ccccc3)NC(=O)[C@H](CC(=O)O)NC(=O)CNC(=O)[C@H](CCCNC(=N)N)NC2=O)NC(=O)[C@@H](Cc2ccccc2)NC(=O)[C@H](CC(=O)O)NC(=O)CNC1=O [technetium-99m labelled] | female athymic nude mice, liver | intravenous, 0.1 MBq, 1 h, U-87 MG glioma xenograft |  | tissue uptake | 3.05 ± 0.54 %ID/g
N=C(N)NCCC[C@@H]1NC(=O)[C@H](CCCCNC(=O)CNC(=O)CNC(=O)CNC(=O)CC[C@H](NC(=O)CCOCCOCCOCCOCCNC(=O)CC[C@H](NC(=O)CN2CCN(CC(=O)O)CCN(CC(=O)O)CCN(CC(=O)O)CC2)C(=O)NCCOCCOCCOCCOCCC(=O)N[C@@H](CCC(=O)NCC(=O)NCC(=O)NCC(=O)NCCCC[C@@H]2NC(=O)[C@@H](Cc3ccccc3)NC(=O)[C@H](CC(=O)O)NC(=O)CNC(=O)[C@H](CCCNC(=N)N)NC2=O)C(=O)NCC(=O)NCC(=O)NCC(=O)NCCCC[C@@H]2NC(=O)[C@@H](Cc3ccccc3)NC(=O)[C@H](CC(=O)O)NC(=O)CNC(=O)[C@H](CCCNC(=N)N)NC2=O)C(=O)NCC(=O)NCC(=O)NCC(=O)NCCCC[C@@H]2NC(=O)[C@@H](Cc3ccccc3)NC(=O)[C@H](CC(=O)O)NC(=O)CNC(=O)[C@H](CCCNC(=N)N)NC2=O)NC(=O)[C@@H](Cc2ccccc2)NC(=O)[C@H](CC(=O)O)NC(=O)CNC1=O [indium-111 labelled] | female athymic nude mice, bone | intravenous, 3 µCi, 0.5 h, U-87 MG glioma xenograft |  | tissue uptake | 2.17 ± 0.42 %ID/g
N=C(N)NCCC[C@H](NC(=O)[C@H](CCCCN)NC(=O)[C@H](CCC(N)=O)NC(=O)CCOCCOCCOCCNC(=O)CN1CCN(CC(=O)O)CCN(CC(=O)O)CCN(CC(=O)O)CC1)C(=O)N[C@@H](CCCCN)C(=O)N[C@@H](CCCNC(=N)N)C(=O)N[C@@H](CCCCN)C(=O)N[C@@H](CCCCN)C(=O)N[C@@H](CO)C(=O)N[C@@H](CCCNC(=N)N)C(=O)N[C@@H](Cc1ccc(O)cc1)C(=O)N[C@@H](CCCCN)C(=O)N[C@@H](CO)C(=O)O [copper-64 labelled] | male C57BL/6 mice, B16-F10 tumour, muscle | intravenous, 60 min |  | tissue uptake | 0.29 ± 0.01 %ID/g
CSCC[C@H](NC(=O)[C@H](CC(C)C)NC(=O)[C@H](Cc1c[nH]cn1)NC(=O)CNC(=O)[C@@H](NC(=O)[C@H](C)NC(=O)[C@H](Cc1c[nH]c2ccccc12)NC(=O)[C@H](CCC(N)=O)NC(=O)CNC(=O)[C@H](CO)NC(=O)CNC(=O)CCCCCCCNC(=O)CCC(=O)Nc1ccc(CNC23CNCCNCC(N)(CNCCNC2)CNCCNC3)cc1)C(C)C)C(N)=O [copper-64 labelled] | female SCID mice, PC-3 xenograft, muscle | intravenous, 0.6 MBq, 1 h |  | tissue uptake | 0.392 ± 0.022 %ID/g
N=C(N)NCCC[C@@H]1NC(=O)[C@H](CCCCNC(=O)CC[C@H](NC(=O)CCOCCOCCOCCOCCNC(=O)CC[C@H](NC(=O)CN2CCN(CC(=O)O)CCN(CC(=O)O)CCN(CC(=O)O)CC2)C(=O)NCCOCCOCCOCCOCCC(=O)N[C@@H](CCC(=O)NCCCC[C@@H]2NC(=O)[C@@H](Cc3ccccc3)NC(=O)[C@H](CC(=O)O)NC(=O)CNC(=O)[C@H](CCCNC(=N)N)NC2=O)C(=O)NCCCC[C@@H]2NC(=O)[C@@H](Cc3ccccc3)NC(=O)[C@H](CC(=O)O)NC(=O)CNC(=O)[C@H](CCCNC(=N)N)NC2=O)C(=O)NCCCC[C@@H]2NC(=O)[C@@H](Cc3ccccc3)NC(=O)[C@H](CC(=O)O)NC(=O)CNC(=O)[C@H](CCCNC(=N)N)NC2=O)NC(=O)[C@@H](Cc2ccccc2)NC(=O)[C@H](CC(=O)O)NC(=O)CNC1=O [indium-111 labelled] | female athymic nude mice, blood | intravenous, 3 µCi, 4 h, U-87 MG glioma xenograft |  | tissue uptake | 0.05 ± 0.02 %ID/g
N=C(N)NCCC[C@@H]1NC(=O)[C@H](CCCCNC(=O)CC[C@H](NC(=O)[C@H](CCCCNC(=O)c2ccc(NN)nc2)NC(=O)c2ccc(NN)nc2)C(=O)NCCCC[C@@H]2NC(=O)[C@@H](Cc3ccccc3)NC(=O)[C@H](CC(=O)O)NC(=O)CNC(=O)[C@H](CCCNC(=N)N)NC2=O)NC(=O)[C@@H](Cc2ccccc2)NC(=O)[C@H](CC(=O)O)NC(=O)CNC1=O [technetium-99m labelled] | female athymic nude mice | intravenous, 1 h, U-87 MG glioma xenograft | reference: tumour over liver | tissue ratio | 2.43 ± 0.21

Repeated from above:
SMILES | test system | setting | scale | quantity | result
CSCC[C@H](NC(=O)[C@H](CC(C)C)NC(=O)[C@H](Cc1c[nH]cn1)NC(=O)CNC(=O)[C@@H](NC(=O)[C@H](C)NC(=O)[C@H](Cc1c[nH]c2ccccc12)NC(=O)[C@H](CCC(N)=O)NC(=O)CCCCCCCNC(=O)CCC(=O)Nc1ccc(CNC23CNCCNCC(N)(CNCCNC2)CNCCNC3)cc1)C(C)C)C(N)=O [copper-64 labelled] | female SCID mice, PC-3 xenograft, lung | intravenous, 0.6 MBq, 1 h |  | tissue uptake | 1.25 ± 0.106 %ID/g
